Assay results pooled from the literature.
Each line is one published result; not all experiments were run side by side. ± gives the spread as reported.
Cell line: MDA-MB-231

CC[C@@H](C(=O)[C@@H](C)[C@@H](O)[C@H](C)[C@@H]1O[C@@H]([C@@H](CC)C(=O)O)CC[C@@H]1C)[C@H]1O[C@]2(C=C[C@@H](O)[C@]3(CC[C@@](C)([C@H]4CC[C@](O)(CC)[C@H](C)O4)O3)O2)[C@H](C)C[C@@H]1C
IC50 (cell growth or viability, MTT; 72 h): 4.9 µM

COc1cc(/C=C/C(O)=C/C(=O)/C=C/c2ccc(O)cc2)ccc1O
IC50 (cell growth or viability, MTT; 48 h): 11.4 µg/mL

Trastuzumab emtansine
IC50 (cell viability, CellTiter-Glo; 5 d, concentration as DM1 content): 1.614 ± 0.0107 µM

O=C(Cn1cnc2ccccc2c1=O)Nc1ccc(O)cc1[N+](=O)[O-]
IC50 (cell growth or viability, crystal violet; 48 h): > 100 µM

CN1C(=O)C(Cc2c[nH]c3ccccc23)NC1=S (stereo not shown)
caspase-3/7 activity (100 µM, with: etoposide 25 µM): inhibited

O=c1c2ccccc2nc(S)n1Cc1cccnc1
IC50 (cell growth or viability, crystal violet; 48 h): > 100 µM

COc1cc2cc(c1Cl)N(C)C(=O)C[C@H](OC(=O)[C@H](C)N(C)C(=O)CCS)[C@]1(C)O[C@H]1[C@H](C)[C@@H]1C[C@@](O)(NC(=O)O1)[C@H](OC)/C=C/C=C(\C)C2
IC50 (cell growth or viability, ATP luminescence): 0.108 µM

O=C1CCCCC1=C1Sc2nc3ccc(S(=O)(=O)N4CCCC4)cc3nc2S1
IC50 (cell growth or viability, MTT; 24 h): 2.26 µM

Cc1ccc(C(C)C)cc1.[Cl][Ru]([Cl])[PH]12CN3CN(CN(C3)C1)C2
IC50 (cell viability, PrestoBlue): 750 µM

O=C(Cn1cnc2ccccc2c1=O)Nc1ncccc1O
IC50 (cell growth or viability, crystal violet; 48 h): > 100 µM

Excerpt of the above:
CC[C@@H](C(=O)[C@@H](C)[C@@H](O)[C@H](C)[C@@H]1O[C@@H]([C@@H](CC)C(=O)O)CC[C@@H]1C)[C@H]1O[C@]2(C=C[C@@H](O)[C@]3(CC[C@@](C)([C@H]4CC[C@](O)(CC)[C@H](C)O4)O3)O2)[C@H](C)C[C@@H]1C
IC50 (cell growth or viability, MTT; 72 h): 4.9 µM
